Experimental data gathered from unrelated publications.
Parts stem from different laboratories: compare values within a part only. Positions count from the first letter of the parent shown.

Block 1
Target: RING finger protein unkempt homolog, zinc fingers 1-6, GST-SBP tag (UNK, Homo sapiens, UniProt Q9C0B0, residues 30-357)
Technique: RNA Bind-n-Seq
Molecule type: RNA
Medium: in vitro
Concentration: not given
Notes: RNA with constant flanks, human and mouse sites, ends assumed
Reference: input RNA pool
Direction: higher = stronger binding
Constant ends, left off below: GGGAGUUCUACAGUCCGACGAUC … CAACAGAGGAUUGAGCAUCA
Construct (chain): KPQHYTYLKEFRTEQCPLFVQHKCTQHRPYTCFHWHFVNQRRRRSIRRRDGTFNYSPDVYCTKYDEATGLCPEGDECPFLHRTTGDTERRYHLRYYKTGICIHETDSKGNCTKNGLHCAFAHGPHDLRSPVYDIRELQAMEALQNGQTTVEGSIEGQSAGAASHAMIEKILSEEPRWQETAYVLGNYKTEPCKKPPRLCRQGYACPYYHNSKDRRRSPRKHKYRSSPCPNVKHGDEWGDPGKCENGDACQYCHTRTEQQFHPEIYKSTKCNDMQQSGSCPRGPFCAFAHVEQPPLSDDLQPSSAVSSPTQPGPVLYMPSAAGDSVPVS
| Oligonucleotide | bound/input enrichment |
| --- | --- |
| GGAGUAAAGGAUGUAGAUGAUUUCUUUGAGCACGAACGAACAUUUCUUUUGGAGUAUCAUAACCGAGUUAAGGAUGCAUCUGCUAAAUCUGAUAGAAUGACAAGAUCCCACAAAAGUGCU | 0.147 ratio |
| GCCACAUUUGCUAUUUCCAUCCUGCAACAGUUGGAGAUUGAGUUCAAGGAGACCCAAGCACUAGUAUUGGCCCCCACCAGAGAACUGGCUCAACAGAUCCAAAAGGUAAUUUUGGCUCUU | 0.128 ratio |
| CAGAAUGGACUGGAAGUUUCACUGAGUAGCCUAAGUCUGGCUGUUCCUCCACCAAGAUUUCAUGACUCCAGCAGUCCGUUGCUAACCAGUGGGCCCUCAGUUGCUGAGCUCCCGUGGGCU | 0.269 ratio |
| CGGGUCGGAGAUUAUGUCUACUUUGAGAAUUCCUCCAGCAACCCAUACCUAAUAAGAAGGAUAGAAGAACUCAACAAGACUGCAAGUGGCAACGUGGAAGCAAAAGUAGUAUGCUUUUAU | 0.822 ratio |
| CGGCGCCCUCUCUCCGUGUGGCCCCCUGAGCGGCCCCCCUCCCCUGCCCGGGAGGGAGGCGGGGGGCACCUGGGGCCCGCCAUGAACCCCGGCUUCGAUUUGUCCCGCCGGAACCCGCAG | 0.0646 ratio |
| GCCACAAAAUAUUUAAUGUGUUGUGCCUUCAUGAUGUAACAGAACAUUCUCCAGGUAGGGUAGUUGGGGGAAAUAAAGGGAUAAAUCUCUAAUUAUUGCUGUUUAACUGUUUGUUAUCAU | 0.565 ratio |
| GAAUUACAACCAUAAAAUGUGUAAUGUUUUGAACAGUAUUCUGUUGGGAUGGAGAUUUUAUAGGUUCAGACAAAUCUUCUAGAUCUGCUUCACCCAGCAUAUUUUCUAUUCAGUGAUAUA | 0.181 ratio |
| GAUGAAGUCGUUACAUCGGAGGGAAAGACUAAGCCCCUCAUACCAGAGAUGUGUUUUAUUUAUAGUGAAGAAAAUAUAGAAUAUUCUCCACCCAAUGCCUUCCUUGAAGAGGAUGGAACA | 0.275 ratio |
| AGUAGAGAACAAUGACCUCAUUUUAUUUUCUAUGUUAGUUAUUUAUUUCAAAAUUAACAUUUUAGUUGAUUUUUGUCUGAUAAGUCUAUGUUUUGCACUGCUAACUAUGAUGAGGGUUUA | 1.32 ratio |
| ACACUCUGACAUGAAUGAAUUAUUAUUAUUUUUAUUUUUCUUUUUUUUUUUACAUUUUGUAUAGAAACAAAUUCAUUUAAACAAACUUAUUAUUAUUAUUUUUUACAAAAUAUAUAUAUG | 73 ratio |
| AAAUGCCACCCACAUUCAAAGACACAGGUGCAGCAGUUUGGGAAGAUGGUGAGUUGGAAGAAGGUGAACUGGAAGACGACGGGGCUGAGGAGGUCCAGGACCCCCCUGGAGGACAAGAGA | 0.38 ratio |

Block 2
Target: CCNB2, cyclin fold, Cln2 fusion (human)
Technique: yeast growth competition, sequencing
Medium: yeast
Notes: weak parent motif
Reference: not given
Direction: higher = stronger binding
Parent: E2F1 docking peptide (human); PPVKRRLDLETDH; partner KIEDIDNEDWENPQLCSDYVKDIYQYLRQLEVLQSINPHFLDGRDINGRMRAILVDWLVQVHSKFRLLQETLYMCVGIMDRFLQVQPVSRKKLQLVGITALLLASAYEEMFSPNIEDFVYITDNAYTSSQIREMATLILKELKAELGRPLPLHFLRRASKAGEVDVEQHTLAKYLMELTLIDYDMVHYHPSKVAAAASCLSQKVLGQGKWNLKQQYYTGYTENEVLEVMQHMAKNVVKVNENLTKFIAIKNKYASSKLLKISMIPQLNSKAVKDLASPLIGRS
| Variant | normalised enrichment score |
| --- | --- |
| PPVKRRLNLETDH [D8N] | 0.523 |
| PPVKGRLDLETDH [R5G] | -0.103 |
| PPVKRRLDLETDV [H13V] | 0.606 |
| PPGKRRLDLETDH [V3G] | -0.198 |
| GPVKRRLDLETDH [P1G] | 0.352 |
| PPVKRLLDLETDH [R6L] | 0.347 |
| PCVKRRLDLETDH [P2C] | 0.442 |
| APVKRRLDLETDH [P1A] | 0.682 |
| PPVKRRLKLETDH [D8K] | 0.403 |
| PPVYRRLDLETDH [K4Y] | -0.379 |
| PPVKRRLDLMTDH [E10M] | 0.349 |
| PPRKRRLDLETDH [V3R] | 0.394 |
| PPVKRRLDLPTDH [E10P] | -0.0485 |

Block 3
Target: Interferon regulatory factor 5, full length, phosphomimetic (IRF5, Homo sapiens, UniProt Q13568-2, residues 1-514, K96S/S451D/S453D/S456D/S462D)
Technique: protein-binding microarray
Molecule type: double-stranded DNA, one strand shown
Medium: in vitro
Concentration: 250 nM
Notes: 60-bp whole probe
With: salmon DNA 0.4 mg/ml
Reference: random background probes
Direction: higher = stronger binding
Constant ends, left off below: GCCTAGCAC … GTCTTGATTCGCTTGACGCTGCTG
| Oligonucleotide | log fluorescence |
| --- | --- |
| TTATGTTTCCTACTGCTTTAGTGCTAG | 1.07 z-score |
| GACGGTTTCCTTTTGCTGACGTGCTAG | 1.12 z-score |
| GGTATTATTTATTGTAGCCTCGTGCTA | 0.628 z-score |
| TTAGGATTGCTTATCCTTTAGTGCTAG | -0.54 z-score |
| TCATCTTTTCTTTTCTTACTGTGCTAG | 1.73 z-score |
| TTAGGTATCCTACTGCGTTAGTGCTAG | -0.104 z-score |
| TCAGTGCTCCTTTTAATACTGTGCTAG | 0.191 z-score |
| TTAGGTATCGTTCTCCTTTAGTGCTAG | 2.88 z-score |
| TCAATTTTTTTTTTCTAACTGTGCTAG | 1.04 z-score |
| GACGATCTCAGTATCGAGCCGTGCTAG | 1.15 z-score |
| TTAGAACTGGGGTTTCGAATAGTGCTA | 1.49 z-score |
| GACGGTTTCGGTTTCGGGTCGTGCTAG | 10.8 z-score |
| TCATTCTTTTTTTTCTTACTGTGCTAG | 1.44 z-score |
| TCTAATATTCATTTTATTCAGTGCTAG | 1.15 z-score |
| TTAGGACTGGGTATCGGTGAGTGCTAG | 1.81 z-score |

Single results of other studies
| Substance | target | assay | system | conditions | how to read | measurement | result |
| --- | --- | --- | --- | --- | --- | --- | --- |
| PhoQ, residues 284 288 289 292 302 303 SSTLLI | PhoP, residues 12 14 15 18 19 TPLRH (Escherichia coli, UniProt P23836) | Sort-seq, item: YFP reporter | E. coli | PhoQ-PhoP variant library, with: 10 µM Mg2+ | reference: high Mg2+ state, higher = stronger signaling | fold induction | 0.611 |

Excerpt of the above (block 2):
| Variant | normalised enrichment score |
| --- | --- |
| PPVKRRLDLMTDH [E10M] | 0.349 |
| APVKRRLDLETDH [P1A] | 0.682 |
| GPVKRRLDLETDH [P1G] | 0.352 |
| PPVKRRLKLETDH [D8K] | 0.403 |
| PPGKRRLDLETDH [V3G] | -0.198 |
